Measurements of several laboratories.
Each numbered part is a random draw from the data of one study; scales do not carry over between parts.

Set 1
Target: RING finger protein unkempt homolog, zinc fingers 1-6, GST-SBP tag (UNK, Homo sapiens, UniProt Q9C0B0, residues 30-357)
Method: RNA Bind-n-Seq
Form: RNA
Sample: in vitro
Tested at: not given
Notes: RNA with constant flanks, human and mouse sites, ends assumed
Relative to: input RNA pool
Direction: higher = stronger binding
All sequences stand within: GGGAGUUCUACAGUCCGACGAUC … CAACAGAGGAUUGAGCAUCA
Construct (chain): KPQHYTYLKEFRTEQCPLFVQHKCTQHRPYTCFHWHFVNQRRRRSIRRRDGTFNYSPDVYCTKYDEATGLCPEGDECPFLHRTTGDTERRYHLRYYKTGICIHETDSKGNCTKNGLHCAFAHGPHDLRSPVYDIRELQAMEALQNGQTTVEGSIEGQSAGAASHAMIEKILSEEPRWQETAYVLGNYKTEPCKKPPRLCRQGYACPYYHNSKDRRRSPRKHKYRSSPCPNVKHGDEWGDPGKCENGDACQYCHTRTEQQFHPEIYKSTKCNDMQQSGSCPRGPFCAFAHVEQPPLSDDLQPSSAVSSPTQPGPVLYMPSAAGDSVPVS
Strand | bound/input enrichment
UCCUCAACUAGAGAACAUGUUCAAAAGAAAGCUGCAGAAUGGAAAAUCAAGAUAGAUAUUAUAGCAGAACUUCGAUAUGACCUGCCAGCAUCAUACAAGUUUCACAAAAAGAAAUCAGUG | 16.1 ratio
GUGUUGCUGGACCUUCAGAGUUAUGAUGGUGAUGCGCAAGGCAAAGAAGAGAUCGACAGUAUUUUGAACAAAGUAGAGGAAAGAAUGAAAGAAUUGAGUCAGGACAGUACUGGGCGGGUG | 1.69 ratio
GAGAAAAAAAAUUACUUAUUUUCUUGCCCCAUACAUACCUUGAGGCGAGCAAAAAAAUUAAAUUUUAACCAUGAGGGAAAUCGUGCACAUCCAGGCUGGUCAGUGUGGCAACCAGAUCGG | 0.412 ratio
GAUACAGCCUAUCCUGAAACCAAUGAUGCUAUUCCUAUGAUCAGCAAACUGAGGUACAAUCCCAGAUUUGACAAAGCUUUCAAACAUGUGUUUGGAAAGACUCUUAUUUGUCGUAGCAUG | 0.331 ratio
GUUCGGAGUUUUGCUGUUCGGUGCUUAGAAAAAUAUUUAACAGAUGACAAACUUUCUCAGUACCUCAUUCAACUUGUACAGGUCUUAAAAUAUGAACAGUAUUUGGAUAACCUGCUUGUG | 2.55 ratio
AUAACAUUACACGAAAUGGCAGAAACAGAUGAAGGAUGGUUGGAUGUUGUCCAGUCUUUAAUUAGAGUUAUUCCACUGGAAGAUCCACUGGGACCAGCUGUUAUAACAUUGUUACUAGAU | 0.714 ratio
GAUAAUGCUAUGUCAAGACUGUUGAAGAAGUAUGAUGUAUUGUUUGCACUCUUCAGCAAAUUGGAAAGGACAUGUGAACUUAUAUAUUUGACACAACCCAGCAGUUCGAUAUCUACUGAA | 0.0918 ratio
UGCAAAGGACUUGCAGCUUUGCCCCACUCAUGCCUGGAAAGGGCCAAGGAGAUUAAGAUCAAGUUGGGAAUUCUCCUCCAGAAGCCAGACUCAGUUGGUGACCUUGUCAUUCCGUACAAU | 0.0952 ratio
AAAACUGAUUUAGAUAAUUCUAUAGGAAUUAAAAAAAUGAAAACCUCAUGUAAAUUUAAGAUAGAUUCAAACAUAAGUCCGAAGAAGGAUAGCAAAGAAUUUACACAAAAAAAUAAGAAA | 4.7 ratio
ACUUUGAUUGACAAGGUCCCUCAAGAACUUACACAGCCAGCUUUGAGGAAAUCUAGACUGUUCUGACAACAGCAUCUGGAGUUGUAAUUGUUGUAAUUUUCUUCCUGUACUGUCUCAGUC | 0.113 ratio
UAUGGGGAUCAAUACAGAGCAACUGAUUUUGUUGUUCCUGGGCCUGGAAAAGUAGAGAUAACCUACACACCAAGUGACGGAACCCAAAAGGUGACAUACCUGGUACAUAACUUUGAAGAA | 0.182 ratio

Set 2
Target: Interferon regulatory factor 7, full length, phosphomimetic (IRF7, Homo sapiens, UniProt Q92985, residues 1-503, S471D/S472D/S475D/S476D/S477D/S483D/S484D/S487D)
Sequence of UniProt Q92985 (whole entry, unmodified, looked up): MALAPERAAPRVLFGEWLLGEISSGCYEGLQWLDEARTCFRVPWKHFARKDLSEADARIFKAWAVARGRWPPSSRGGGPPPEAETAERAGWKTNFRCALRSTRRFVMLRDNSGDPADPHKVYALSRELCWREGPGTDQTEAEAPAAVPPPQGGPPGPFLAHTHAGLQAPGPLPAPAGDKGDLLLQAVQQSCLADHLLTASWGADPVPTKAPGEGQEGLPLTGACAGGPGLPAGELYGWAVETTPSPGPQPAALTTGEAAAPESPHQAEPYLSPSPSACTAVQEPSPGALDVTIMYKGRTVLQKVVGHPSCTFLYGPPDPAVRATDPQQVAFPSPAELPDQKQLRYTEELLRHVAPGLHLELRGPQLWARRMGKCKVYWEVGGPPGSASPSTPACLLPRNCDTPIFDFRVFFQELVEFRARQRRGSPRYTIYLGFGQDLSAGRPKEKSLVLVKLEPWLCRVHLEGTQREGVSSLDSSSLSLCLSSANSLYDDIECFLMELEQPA
Method: protein-binding microarray
Form: double-stranded DNA, one strand shown
Sample: in vitro
Tested at: 2200 nM top
Notes: 60-bp whole probe
With: salmon DNA 0.4 mg/ml
Relative to: random background probes
Direction: higher = stronger binding
All sequences stand within: GCCTAGCAC … GTCTTGATTCGCTTGACGCTGCTG
Strand | fitted relative affinity
GACGGTTTCGACTATCCGGACGTGCTA | 3.8 z-score
GACGGATTGGGTCTCGGGACGTGCTAG | -0.162 z-score
TTAGGTCTCGCTTTCGGTTAGTGCTAG | 7.69 z-score
TACGGACTGGGACTGGGGACGTGCTAG | -0.877 z-score
TTAGATATTGGGTATCGATTAGTGCTA | -0.034 z-score
TACGGTTTCCTTTTCCTGACGTGCTAG | 5.87 z-score
TTAGATATCAGTTTCGATTAGTGCTAG | 5.57 z-score
TTAGGTTTCTTTCTCCTTTAGTGCTAG | 2.62 z-score
TTAGGTTTCCTATCCCTTTAGTGCTAG | 2.16 z-score
GAAGATCTCAGACTGGAGACGTGCTAG | -0.408 z-score
ATGGCTTTGCAGATAAATATGTGCTAG | -0.231 z-score
GACGAACTGGGGTTTCGCGACGTGCTA | 0.368 z-score
TTAGATTTGGGGTTTCGATTAGTGCTA | 2.85 z-score
TTAGATATCAGATTGGATTAGTGCTAG | -0.293 z-score
TTAGGTATCGGTCCCGGTTAGTGCTAG | 0.25 z-score
GACGGTTTCCGTCTCGGGACGTGCTAG | 2.04 z-score
TTAGAACTGAGCCTGGATTAGTGCTAG | -0.469 z-score
AACGGTCTCCTTCTCCTGACGTGCTAG | 0.938 z-score
TGACCTGCTCCAAACACCTCGTGCTAG | 0.804 z-score
GACGAACTTAGTTTCGAGACGTGCTAG | 3.74 z-score
TCAGGTGTCTTTTGTGGAACTGTGCTA | 0.279 z-score
GACGGACTGGGGACTGGGGAGGTGCTA | -0.557 z-score
GAAGGTATCGACTATCGGGACGTGCTA | -0.21 z-score
TCACATCTCGGAGATCTCACTGTGCTA | 1.18 z-score
TCATCCTTTGCTTTCTCACTGTGCTAG | 2.85 z-score

Set 3
Target: RNA binding protein fox-1 homolog 2, RRM domain, GST-SBP tag (RBFOX2, Homo sapiens, UniProt O43251-10, residues 100-194)
Method: RNA Bind-n-Seq
Form: RNA
Sample: in vitro
Tested at: 365 nM
Notes: natural RNA segment, single round, ends assumed
Relative to: no-protein control
Direction: higher = stronger binding
All sequences stand within: GGGAGUUCUACAGUCCGACGAUC … UGGAAUUCUCGGGUGCCAA
Construct (chain): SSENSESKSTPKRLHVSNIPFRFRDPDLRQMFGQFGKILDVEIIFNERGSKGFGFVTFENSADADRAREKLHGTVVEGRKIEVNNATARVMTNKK
Strand | RBNS enrichment (R)
GCAGGAGAGCUGCCCCCUUUCACGGGGUUGGGGAAGGGUCCCCCUGGCCUCCAGCAGGAGCACAGCUCAGCAGGGUCCCUGCUGCCCACCCCUCUGAGCCUUUUCUCCCC | 0.583
UGGUAGCAGUUUGAUGUGCUGGGUUCUGUCAUCUGUUCUGAUGAGAAGAUUUUUAUCUUCUGCAGUGCUGAUGGCCGGGAGGAACCAUUCAAAGCCACUGGUUAUUUUGU | 0.72
AUAAGAAGCCUGUCAGUAUUGCCAUGAGACUGUUUCAUAUGGUUACUUUUCUGUAUUCCCAAGGAAUGCCUUCCUGUCUUAUUUUAGCCAAAACAAACUGGUUCCAUGCC | 4.46
CUUGCCUCCCAGGGAUUUGUGAGCCUUUCCUAGAAGGUCCUGUGCUCUCCUCCUUCUGUCCCCUCCCCUACUGUCUGCUGCCCCUUCCUGGGGAGUUGGUGCUUUCUUUU | 1.26
AAUAUUUAUGGGUGAAUUGAUGCCACAAAAGUAAUAUGAUUGCCCACCUCAACCUGGCAUUCUGUGUUAAUAAUACAGAUACUAUUUUUAUAAAAUCAUUUUCAAGUUUC | 0.598
AUGACAGAAGUUCGUAUUACGCCUUGGAAGGUCUAGGUGGAGAUCACCACCAGCAUUCUCUGCCUGUGGGGUUGUGGGGCUGGUGCUUUCUCCAUUUCUGAGGGUCAGGA | 0.712
UCUUGGGAAAGCCUCUCCUGGGGCCACUGUUGGGGGUGGGAGUGAGCCCACCACAGAGGCCACAGGCAGGCCCCCACUUCAGGCCCAAGGCCUGGGGCGGGGGGAACAGU | 0.488
GCAGAGCUGCAUUGUGGUAUAUAUACUGAGAGAUCUGCAUUGUUCACCUGCCAGACUGGGAUUUUCCUCUCAUCUAAGACACAAAGCGCCUAAGGUGCUCAGCGUCUCAA | 0.274
GGCUCUGUGGGCUGUGCUCAGUCUGUGGCCCAGCACCCCUGCCCUAGAAAGGGGCAACACAGGGUACUACUUGAACUUUCCUAUCACAGCUCCCAUGCCACAGAGGGACA | 0.309

Set 4
Target: Ras GTPase-activating protein-binding protein 1, full length (G3BP1, Homo sapiens, UniProt Q13283)
Sequence of UniProt Q13283 (whole entry, looked up): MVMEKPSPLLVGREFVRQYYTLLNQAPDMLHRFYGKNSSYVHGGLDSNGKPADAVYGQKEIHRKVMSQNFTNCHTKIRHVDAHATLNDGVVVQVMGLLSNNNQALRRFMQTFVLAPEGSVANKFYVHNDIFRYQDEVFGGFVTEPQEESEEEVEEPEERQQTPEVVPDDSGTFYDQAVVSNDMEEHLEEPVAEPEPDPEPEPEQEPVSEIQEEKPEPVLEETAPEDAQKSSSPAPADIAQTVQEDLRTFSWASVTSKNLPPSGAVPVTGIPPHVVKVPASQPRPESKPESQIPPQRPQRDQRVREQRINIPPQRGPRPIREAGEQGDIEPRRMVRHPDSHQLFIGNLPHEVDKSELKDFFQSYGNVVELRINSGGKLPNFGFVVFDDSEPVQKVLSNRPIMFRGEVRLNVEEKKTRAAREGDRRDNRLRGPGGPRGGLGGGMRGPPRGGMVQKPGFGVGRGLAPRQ
Method: RNA Bind-n-Seq
Form: RNA
Sample: in vitro
Tested at: 200 nM
Notes: whole 134-nt RNA, ends assumed
With: 150 mM LiCl
Relative to: input library
Direction: higher = stronger binding
All molecules: 7-deaza-guanosine replaces G
All sequences stand within: GGGAGUUCUACAGUCCGACGAUC … UGGAAUUCUCGGGUGUCAAGG
Strand | log2 enrichment
UGGGAGGUGGAUUUUGUUUAUUUUUUUAGCUCAUUUCCAGGGGUGGGAAUUUUUUUUUAAUAUGUGUCAUGCAUAAAGUUGUUUUUGAAA | -0.00949
UCCUGUGCUACACAUCGUAUGUACCGAAUCGGGAAAAAAAGGGAAAGGGUUUUUUUGGGAAAGUAUUAUGUUACGCCGUUCGGAUCUGCA | -0.728
CAAGUCCUGUGCUACACAUCGUAUGUACCGAAUCGGGGCCCGGCCCGGGGCCCGGAAAGUAUUAUGUUACGCCGUUCGGAUCUGCACUUC | -0.717
UAUGGACAAGCAUAAUGGAACAGACAGGUUUGUGAACCAGCAGUUUCAAGAGGAAAAGUUAAAUAAAUUGCAGAAGUUACUUAUUCUUUU | -2.85
UCCUGUGCUACACAUCGUAUGUACCGAAUCGGGGAAAAAGGGGUUUUUUUGGGGAGGGGAAAGUAUUAUGUUACGCCGUUCGGAUCUGCA | 0.118
UGGCCCUGGUGGCAUGCGGGGAGGAAGAGGUGGCCUCAUGGAUCGUGGUGGUCCCCGUGGAAUGUUCAGAGGUGGCCGUGGUGGAGACAG | 0.709
CUGUGCUACACAUCGUAUGUACCGAAUCGGGAAAAAAGGGGAAAAAAGGGGAAAAAAGGGGAAAGUAUUAUGUUACGCCGUUCGGAUCUG | 0.458
UUUGCAGGAUUAAUCACUCCUGAAGAUCGGAAAUAUGGAACAACAAAUCUUCACUUAGAUGUAUCUGAUGCAGCUAAUGUCAUGGUCUAU | -1.86
GUCCUGUGCUACACAUCGUAUGUACCGAAUCGGGGAAAAAAAGGGGUGGGGAAAGGGGAAAGUAUUAUGUUACGCCGUUCGGAUCUGCAC | -0.193
GCAGGAAGUAAAAACAAAUGGAAAUGCUUCGGAUAGUGGUAGGGGUGGGGGUUGCUAAGGAAAGGGUGGGAUGGGAGUGGGUAAAGAGUU | 0.369
UUUGGCAAUGAGAUCUAAACCAGACAAAGACCUCCUUAUGGAAGAAGAUGACAUGGCCUUGGCAAAUGUAGUCAUGCAGGAAGCUCAGAA | -2.2

A few entries again (set 2):
Strand | fitted relative affinity
TTAGATATCAGATTGGATTAGTGCTAG | -0.293 z-score
TACGGACTGGGACTGGGGACGTGCTAG | -0.877 z-score
TTAGATATTGGGTATCGATTAGTGCTA | -0.034 z-score
AACGGTCTCCTTCTCCTGACGTGCTAG | 0.938 z-score
